# Published values gathered from unrelated publications.
# Every numbered part comes from another study and shows a few of its results, in no order.
# Chain of UniProt P42336 (whole entry, unmodified, looked up): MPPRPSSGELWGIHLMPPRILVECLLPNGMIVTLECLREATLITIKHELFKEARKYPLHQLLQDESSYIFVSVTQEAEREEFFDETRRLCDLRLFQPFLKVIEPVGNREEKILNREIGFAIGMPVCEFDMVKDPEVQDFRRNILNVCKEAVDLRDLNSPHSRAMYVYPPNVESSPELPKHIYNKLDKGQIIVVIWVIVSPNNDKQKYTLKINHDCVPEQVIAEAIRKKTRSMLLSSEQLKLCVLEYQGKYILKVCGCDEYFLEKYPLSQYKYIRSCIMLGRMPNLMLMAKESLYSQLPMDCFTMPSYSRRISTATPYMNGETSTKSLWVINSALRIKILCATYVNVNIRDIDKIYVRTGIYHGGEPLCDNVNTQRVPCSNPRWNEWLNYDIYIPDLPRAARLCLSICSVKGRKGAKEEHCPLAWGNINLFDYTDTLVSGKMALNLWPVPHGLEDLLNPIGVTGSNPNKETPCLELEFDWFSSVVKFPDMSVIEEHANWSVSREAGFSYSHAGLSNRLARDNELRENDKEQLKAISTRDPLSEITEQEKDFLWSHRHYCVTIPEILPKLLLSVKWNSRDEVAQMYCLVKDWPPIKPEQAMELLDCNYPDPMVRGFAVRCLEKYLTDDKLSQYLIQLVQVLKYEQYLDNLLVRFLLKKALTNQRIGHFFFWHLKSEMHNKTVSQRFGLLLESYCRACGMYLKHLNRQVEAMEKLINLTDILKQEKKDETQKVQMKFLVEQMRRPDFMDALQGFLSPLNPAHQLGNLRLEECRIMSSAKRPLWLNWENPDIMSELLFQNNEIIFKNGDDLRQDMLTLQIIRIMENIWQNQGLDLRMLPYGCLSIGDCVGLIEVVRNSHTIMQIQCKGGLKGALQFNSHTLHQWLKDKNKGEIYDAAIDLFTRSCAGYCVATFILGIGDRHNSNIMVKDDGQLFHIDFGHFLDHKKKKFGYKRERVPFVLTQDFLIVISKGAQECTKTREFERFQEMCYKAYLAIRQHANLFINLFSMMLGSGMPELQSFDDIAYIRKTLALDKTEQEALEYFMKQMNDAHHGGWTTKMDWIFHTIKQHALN
# Chain of UniProt O60285 (whole entry, looked up): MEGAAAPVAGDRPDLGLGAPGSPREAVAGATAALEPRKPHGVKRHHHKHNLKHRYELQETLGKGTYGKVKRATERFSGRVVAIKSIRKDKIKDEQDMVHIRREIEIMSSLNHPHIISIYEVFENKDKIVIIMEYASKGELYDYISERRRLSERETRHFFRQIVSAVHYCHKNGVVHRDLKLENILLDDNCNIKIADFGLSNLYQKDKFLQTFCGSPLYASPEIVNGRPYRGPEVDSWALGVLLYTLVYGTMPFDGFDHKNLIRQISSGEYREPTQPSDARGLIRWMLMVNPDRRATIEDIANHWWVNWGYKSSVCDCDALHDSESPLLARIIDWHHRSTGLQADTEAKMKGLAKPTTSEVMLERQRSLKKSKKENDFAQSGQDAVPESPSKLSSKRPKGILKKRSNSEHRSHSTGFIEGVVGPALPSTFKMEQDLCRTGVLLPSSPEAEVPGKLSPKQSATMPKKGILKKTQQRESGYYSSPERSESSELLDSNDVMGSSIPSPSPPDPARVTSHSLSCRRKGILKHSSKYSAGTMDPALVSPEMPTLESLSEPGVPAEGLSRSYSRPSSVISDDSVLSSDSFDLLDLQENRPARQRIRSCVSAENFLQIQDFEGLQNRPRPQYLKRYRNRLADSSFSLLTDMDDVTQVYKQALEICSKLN
# Chain of UniProt P29323 (whole entry, looked up): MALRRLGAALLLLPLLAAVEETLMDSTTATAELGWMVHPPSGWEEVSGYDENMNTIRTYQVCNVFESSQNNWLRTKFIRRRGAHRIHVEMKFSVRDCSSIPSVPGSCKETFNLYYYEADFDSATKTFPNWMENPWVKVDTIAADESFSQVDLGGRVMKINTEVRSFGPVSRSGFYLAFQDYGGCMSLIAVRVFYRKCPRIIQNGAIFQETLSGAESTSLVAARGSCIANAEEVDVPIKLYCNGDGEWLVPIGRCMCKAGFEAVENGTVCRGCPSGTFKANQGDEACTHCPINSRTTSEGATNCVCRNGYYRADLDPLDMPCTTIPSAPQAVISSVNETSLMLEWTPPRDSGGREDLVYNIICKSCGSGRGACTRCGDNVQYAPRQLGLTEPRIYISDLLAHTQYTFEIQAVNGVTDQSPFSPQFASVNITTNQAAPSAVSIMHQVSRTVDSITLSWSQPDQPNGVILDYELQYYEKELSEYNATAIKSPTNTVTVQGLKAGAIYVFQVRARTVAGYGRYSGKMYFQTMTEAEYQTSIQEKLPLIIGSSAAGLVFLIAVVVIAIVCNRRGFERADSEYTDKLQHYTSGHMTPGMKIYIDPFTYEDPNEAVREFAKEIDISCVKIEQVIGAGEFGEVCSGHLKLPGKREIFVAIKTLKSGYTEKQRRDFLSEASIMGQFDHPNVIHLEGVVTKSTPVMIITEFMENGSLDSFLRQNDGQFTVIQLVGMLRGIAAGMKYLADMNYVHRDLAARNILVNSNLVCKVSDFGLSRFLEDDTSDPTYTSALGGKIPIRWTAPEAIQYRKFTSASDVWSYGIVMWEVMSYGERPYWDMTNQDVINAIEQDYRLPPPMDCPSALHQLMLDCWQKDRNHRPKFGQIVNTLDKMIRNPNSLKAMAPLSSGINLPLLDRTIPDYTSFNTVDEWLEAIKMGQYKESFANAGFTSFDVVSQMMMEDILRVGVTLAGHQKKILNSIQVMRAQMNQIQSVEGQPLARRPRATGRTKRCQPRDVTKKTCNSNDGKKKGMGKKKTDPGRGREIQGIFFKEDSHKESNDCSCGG
# Chain of UniProt Q06418 (whole entry, looked up): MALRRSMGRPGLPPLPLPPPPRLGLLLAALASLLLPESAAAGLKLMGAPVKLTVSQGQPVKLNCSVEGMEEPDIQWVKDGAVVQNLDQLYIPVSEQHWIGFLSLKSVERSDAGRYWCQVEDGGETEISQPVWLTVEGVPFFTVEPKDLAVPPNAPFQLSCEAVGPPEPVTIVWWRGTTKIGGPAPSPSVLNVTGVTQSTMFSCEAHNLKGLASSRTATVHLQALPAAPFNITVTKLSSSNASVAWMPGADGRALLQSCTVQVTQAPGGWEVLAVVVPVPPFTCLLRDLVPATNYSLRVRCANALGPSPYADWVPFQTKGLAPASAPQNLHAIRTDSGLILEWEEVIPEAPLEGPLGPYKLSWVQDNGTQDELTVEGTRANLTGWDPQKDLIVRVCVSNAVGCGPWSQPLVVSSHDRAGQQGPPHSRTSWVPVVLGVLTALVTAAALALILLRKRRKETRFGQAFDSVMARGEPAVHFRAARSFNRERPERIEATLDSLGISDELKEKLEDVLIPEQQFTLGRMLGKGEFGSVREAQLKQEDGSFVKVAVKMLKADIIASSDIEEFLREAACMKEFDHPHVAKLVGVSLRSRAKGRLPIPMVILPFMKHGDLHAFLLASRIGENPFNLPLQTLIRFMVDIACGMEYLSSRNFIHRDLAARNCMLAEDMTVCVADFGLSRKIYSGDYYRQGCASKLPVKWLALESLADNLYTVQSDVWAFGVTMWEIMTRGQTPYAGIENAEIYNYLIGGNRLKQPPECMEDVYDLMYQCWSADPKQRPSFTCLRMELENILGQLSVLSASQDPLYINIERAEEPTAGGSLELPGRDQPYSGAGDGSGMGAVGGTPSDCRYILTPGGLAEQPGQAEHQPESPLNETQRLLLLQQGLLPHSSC
# Chain of UniProt Q13523 (whole entry, looked up): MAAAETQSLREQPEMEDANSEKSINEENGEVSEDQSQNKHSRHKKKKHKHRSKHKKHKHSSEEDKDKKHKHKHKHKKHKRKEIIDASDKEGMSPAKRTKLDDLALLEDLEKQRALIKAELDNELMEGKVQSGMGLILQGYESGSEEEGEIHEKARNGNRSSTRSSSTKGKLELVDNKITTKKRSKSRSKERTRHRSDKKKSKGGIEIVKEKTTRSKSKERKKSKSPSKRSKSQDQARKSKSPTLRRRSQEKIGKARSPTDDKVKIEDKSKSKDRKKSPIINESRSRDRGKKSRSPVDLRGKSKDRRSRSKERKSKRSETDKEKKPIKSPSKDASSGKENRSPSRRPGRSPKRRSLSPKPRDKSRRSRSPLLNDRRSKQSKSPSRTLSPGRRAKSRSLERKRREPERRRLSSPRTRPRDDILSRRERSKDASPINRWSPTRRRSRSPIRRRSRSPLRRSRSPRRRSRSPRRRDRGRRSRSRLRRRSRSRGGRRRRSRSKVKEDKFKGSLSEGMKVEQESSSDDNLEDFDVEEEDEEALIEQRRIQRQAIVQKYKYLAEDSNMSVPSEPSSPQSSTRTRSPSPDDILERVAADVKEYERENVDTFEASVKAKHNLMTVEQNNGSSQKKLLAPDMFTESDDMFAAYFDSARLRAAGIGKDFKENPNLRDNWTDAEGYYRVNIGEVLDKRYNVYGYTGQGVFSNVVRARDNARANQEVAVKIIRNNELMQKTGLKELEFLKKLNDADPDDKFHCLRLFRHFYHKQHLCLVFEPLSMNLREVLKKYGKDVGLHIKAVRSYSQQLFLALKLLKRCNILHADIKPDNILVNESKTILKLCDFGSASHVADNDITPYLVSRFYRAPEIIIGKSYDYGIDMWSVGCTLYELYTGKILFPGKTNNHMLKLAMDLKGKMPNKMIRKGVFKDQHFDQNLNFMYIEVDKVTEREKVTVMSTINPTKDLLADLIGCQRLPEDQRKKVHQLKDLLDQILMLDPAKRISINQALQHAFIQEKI
# Chain of UniProt Q9UQB9 (whole entry, looked up): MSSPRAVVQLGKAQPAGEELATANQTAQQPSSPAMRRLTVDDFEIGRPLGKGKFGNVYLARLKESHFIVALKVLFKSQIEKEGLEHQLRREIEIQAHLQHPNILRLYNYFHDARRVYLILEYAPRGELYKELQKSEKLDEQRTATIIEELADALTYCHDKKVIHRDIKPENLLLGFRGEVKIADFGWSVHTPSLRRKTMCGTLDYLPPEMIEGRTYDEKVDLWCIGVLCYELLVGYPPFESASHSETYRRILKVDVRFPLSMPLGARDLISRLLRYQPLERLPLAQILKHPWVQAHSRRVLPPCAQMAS

# Sample 1 — method: competition with immobilised ligand; tested at: 1 µM
# Compound: O=C(Nc1cccnn1)N1CC(C/C=C/c2cncc(Oc3ccc(C(F)(F)F)cn3)n2)C1
target,assay,remaining binding [%]
"MERTK (Homo sapiens, UniProt Q12866)",cell-free assay,100
"PRPF4B (Homo sapiens, UniProt Q13523)",cell-free assay,100
"Ribosomal protein S6 kinase alpha-5, C-terminal kinase domain (RPS6KA5, Homo sapiens, UniProt O75582)",cell-free assay,100
"GSK3A (Homo sapiens, UniProt P49840)",cell-free assay,92
"RET (Homo sapiens, UniProt P07949, V804M)",cell-free assay,100
"TEK (Homo sapiens, UniProt Q02763)",cell-free assay,84
"ANKK1 (Homo sapiens, UniProt Q8NFD2)",cell-free assay,73
"Tyrosine-protein kinase JAK1, JH2 (JAK1, Homo sapiens, UniProt P23458)",cell-free assay,95
"STK35 (Homo sapiens, UniProt Q8TDR2)",cell-free assay,94
"PTK6 (Homo sapiens, UniProt Q13882)",cell-free assay,91
"MAP4K1 (Homo sapiens, UniProt Q92918)",cell-free assay,98
"TYRO3 (Homo sapiens, UniProt Q06418)",cell-free assay,100
"PIK3CA (Homo sapiens, UniProt P42336, H1047L)",cell-free assay,100
"PAK5 (Homo sapiens, UniProt Q9P286)",cell-free assay,95
"TEC (Homo sapiens, UniProt P42680)",binding,100
"PIK3CA (Homo sapiens, UniProt P42336, E545A)",cell-free assay,75
"CSNK2A1 (Homo sapiens, UniProt P68400)",cell-free assay,72
"CDK11B (Homo sapiens, UniProt P21127)",cell-free assay,100

# Sample 2 — read-out: enzyme activity; action: inhibitor; tested at: 0.5 µM; reference: control
# Structure (SMILES): N#Cc1cnc2cnc(NCc3cccnc3)cc2c1Nc1ccc(F)c(Cl)c1
target,remaining activity
"CSF1R (Homo sapiens, UniProt P07333)",96.3%
"PAK2 (Homo sapiens, UniProt Q13177)",66.6%
"MYLK (Homo sapiens, UniProt Q15746)",105%
"PIM2 (Homo sapiens, UniProt Q9P1W9)",101%
"NUAK1 (Homo sapiens, UniProt O60285)",103%
"Aurora kinase C (AURKC, Homo sapiens, UniProt Q9UQB9)",91.8%
"EPHA7 (Homo sapiens, UniProt Q15375)",83.7%
"EPHB2 (Homo sapiens, UniProt P29323)",97.4%
"RPS6KA1 (Homo sapiens, UniProt Q15418)",94.6%
"FLT3 (Homo sapiens, UniProt P36888)",83.6%
"BMX (Homo sapiens, UniProt P51813)",84%
"SGK1 (Homo sapiens, UniProt O00141)",93.2%
"PRKCE (Homo sapiens, UniProt Q02156)",101%
"PRKCG (Homo sapiens, UniProt P05129)",111%

# Sample 3 — cell line: HH; tested at: 2 µM; time: 48 h; reference: untreated
Compound,viability [%]
COc1ccc(-c2cc3c(C)nc(N)nc3n([C@H]3CC[C@H](OCCO)CC3)c2=O)cn1,43.8
CO[C@H]1C[C@@H]2CC[C@@H](C)[C@@](O)(O2)C(=O)C(=O)N2CCCC[C@H]2C(=O)O[C@H]([C@H](C)C[C@@H]2CC[C@@H](OCCO)[C@H](OC)C2)CC(=O)[C@H](C)/C=C(\C)[C@@H](O)[C@@H](OC)C(=O)[C@H](C)C[C@H](C)/C=C/C=C/C=C/1C,56.6
COc1cc(Nc2c(C#N)cnc3cc(OCCCN4CCN(C)CC4)c(OC)cc23)c(Cl)cc1Cl,103
COc1nccc(-c2c(-c3ccc(F)cc3)ncn2[C@H]2CC[C@H](O)CC2)n1,75.4
C=CC(=O)Nc1ccc(CN2C(=O)N(c3cc(OC)cc(OC)c3)Cc3cnc(Nc4ccc(N5CCN(C)CC5)cc4)nc32)cc1,75.1
N#C/C(=C\c1ccc(O)c(O)c1)C(=O)NCc1ccccc1,93.6
O=C(Nc1cccc(Nc2ncc(Br)c(NCCc3cnc[nH]3)n2)c1)N1CCCC1,62.4
COC(=O)Nc1ccc(-c2nc(N3CCOCC3)c3cnn(C4CCN(C(=O)OC)CC4)c3n2)cc1,72.8
Cc1cnc(Nc2ccc(N3CCN(C)CC3)cc2)nc1Nc1cccc(S(=O)(=O)NC(C)(C)C)c1,53.9
CN(c1ncccc1CNc1nc(Nc2ccc3c(c2)CC(=O)N3)ncc1C(F)(F)F)S(C)(=O)=O,86
CN(C)Cc1cccc(N=C(c2ccccc2)c2c(O)[nH]c3cc(C(=O)N(C)C)ccc23)c1,88.5

# Further values, each from its own experiment
SMILES,target,assay,measurement,result
CC(C)(C)NC[C@H](O)COc1ccccc1C1CCCC1,"Beta-1 adrenergic receptor (ADRB1, Homo sapiens, UniProt P08588)",agonist,Emax,87.1%

# For quick reference, copied from above (sample 1):
target,assay,remaining binding [%]
"TEK (Homo sapiens, UniProt Q02763)",cell-free assay,84
"ANKK1 (Homo sapiens, UniProt Q8NFD2)",cell-free assay,73
"Tyrosine-protein kinase JAK1, JH2 (JAK1, Homo sapiens, UniProt P23458)",cell-free assay,95
"STK35 (Homo sapiens, UniProt Q8TDR2)",cell-free assay,94
